{"data": "Experimental data pooled from the literature", "note": "Lines come from different studies, so protocols differ. “And” joins repeats or separate records; there may be more than shown. ± gives the spread as reported."}
{"SMILES": "O=c1nc(NO)ccn1[C@@H]1O[C@H](CO)[C@@H](O)[C@H]1O", "organism": "Influenza A virus", "test": "viral replication", "test system": "MDCK, A/WSN/33-nanoLuc or A/California/09", "conditions": "1 and 2 µM, fixed-dose serial passaging", "quantity": "passages tolerated", "value": "> 10 passages"}
{"SMILES": "NC12CC3CC(CC(C3)C1)C2", "organism": "Influenza A virus", "test": "viral replication", "test system": "MDCK, A/Swine/Minnesota/34-0818/2011 (H1N2)", "quantity": "EC50", "value": "< 1000 nM"}
{"SMILES": "CC(=O)N1C[C@@H](COP(=O)(N(C)C)N2C[C@@H](COP(=O)(N(C)C)N3C[C@@H](COP(=O)(N(C)C)N4C[C@@H](COP(=O)(N(C)C)N5C[C@@H](COP(=O)(N(C)C)N6C[C@@H](COP(=O)(N(C)C)N7C[C@@H](COP(=O)(N(C)C)N8C[C@@H](COP(=O)(N(C)C)N9C[C@@H](COP(=O)(N(C)C)N%10C[C@@H](COP(=O)(N(C)C)N%11C[C@@H](COP(=O)(N(C)C)N%12C[C@@H](COP(=O)(N(C)C)N%13C[C@@H](COP(=O)(N(C)C)N%14C[C@@H](COP(=O)(N(C)C)N%15C[C@@H](COP(=O)(N(C)C)N%16C[C@@H](COP(=O)(N(C)C)N%17C[C@@H](COP(=O)(N(C)C)N%18C[C@@H](COP(=O)(N(C)C)N%19C[C@@H](COP(=O)(N(C)C)N%20C[C@@H](COP(=O)(N(C)C)N%21C[C@@H](COP(=O)(N(C)C)N%22C[C@@H](COP(=O)(N(C)C)N%23C[C@@H](COP(=O)(N(C)C)N%24CCN(C(=O)CCCN%25C(=O)CC(SC[C@H](NC(=O)[C@H](CCCNC(=N)N)NC(=O)[C@H](CCCNC(=N)N)NC(=O)[C@H](CCCNC(=N)N)NC(=O)[C@H](CCCNC(=N)N)NC(=O)[C@H](Cc%26ccccc%26)NC(=O)[C@H](Cc%26ccccc%26)NC(=O)[C@H](CCCNC(=N)N)NC(=O)[C@H](CCCNC(=N)N)NC(=O)[C@H](CCCNC(=N)N)NC(=O)[C@H](CCCNC(=N)N)NC(=O)[C@@H](N)CCCNC(=N)N)C(N)=O)C%25=O)CC%24)O[C@@H](n%24cnc%25c(=O)[nH]c(N)nc%25%24)C%23)O[C@@H](n%23cc(C)c(=O)[nH]c%23=O)C%22)O[C@@H](n%22ccc(N)nc%22=O)C%21)O[C@@H](n%21cnc%22c(N)ncnc%22%21)C%20)O[C@@H](n%20cc(C)c(=O)[nH]c%20=O)C%19)O[C@@H](n%19ccc(N)nc%19=O)C%18)O[C@@H](n%18cc(C)c(=O)[nH]c%18=O)C%17)O[C@@H](n%17cc(C)c(=O)[nH]c%17=O)C%16)O[C@@H](n%16cnc%17c(=O)[nH]c(N)nc%17%16)C%15)O[C@@H](n%15ccc(N)nc%15=O)C%14)O[C@@H](n%14cnc%15c(=O)[nH]c(N)nc%15%14)C%13)O[C@@H](n%13ccc(N)nc%13=O)C%12)O[C@@H](n%12ccc(N)nc%12=O)C%11)O[C@@H](n%11cnc%12c(N)ncnc%12%11)C%10)O[C@@H](n%10cc(C)c(=O)[nH]c%10=O)C9)O[C@@H](n9cc(C)c(=O)[nH]c9=O)C8)O[C@@H](n8cc(C)c(=O)[nH]c8=O)C7)O[C@@H](n7cc(C)c(=O)[nH]c7=O)C6)O[C@@H](n6cc(C)c(=O)[nH]c6=O)C5)O[C@@H](n5cnc6c(=O)[nH]c(N)nc65)C4)O[C@@H](n4cc(C)c(=O)[nH]c4=O)C3)O[C@@H](n3cnc4c(=O)[nH]c(N)nc43)C2)O[C@@H](n2cnc3c(=O)[nH]c(N)nc32)C1 (some centres unmarked)", "organism": "Kaposi's sarcoma-associated herpesvirus", "test": "immunofluorescence", "test system": "BC1 cells, EBV co-infected", "conditions": "concentration not given, together with: TPA", "scale": "relative to: mock-treated", "quantity": "RTA-positive cells", "value": "decreased"}
{"SMILES": "Nc1c(C(=O)Nc2ccc(Cl)cc2F)sc2nc(-c3cccs3)ccc12", "organism": "Bacillus anthracis", "test system": "Sterne", "quantity": "MIC50", "value": "20 µM"}
{"SMILES": "CC(C)[C@H](NC(=O)[C@H](Cc1c[nH]c2ccccc12)NC(=O)[C@H](CCCNC(=N)N)NC(=O)[C@H](Cc1c[nH]c2ccccc12)NC(=O)[C@H](Cc1c[nH]c2ccccc12)NC(=O)[C@H](CCCNC(=N)N)NC(=O)[C@@H](N)CCCNC(=N)N)C(=O)N[C@H](C(=O)N[C@@H](Cc1c[nH]c2ccccc12)C(N)=O)C(C)C", "organism": "Mycobacterium bovis", "test system": "isoniazid-resistant mutant, broth with pyruvate", "conditions": "48 h, 37 °C", "quantity": "MIC", "value": "20 µM"}
{"SMILES": "O=C(NN1C(=O)[C@@H]2[C@@H]3C=C[C@@H]([C@H]4C[C@@H]34)[C@@H]2C1=O)c1ccc(C(F)(F)F)cc1", "organism": "monkeypox virus", "test system": "mice", "conditions": "oral, 50 mg/kg once daily, day 10", "quantity": "lung viral titre", "value": "2.78 log10 TCID50/g and 3.41 log10 TCID50/g and 3.37 log10 TCID50/g"}
{"SMILES": "CC(=O)Oc1ccccc1C(=O)Nc1ncc([N+](=O)[O-])s1", "organism": "influenza A virus", "test": "cell-based", "scale": "relative to: R292K mutant over wild type", "quantity": "IC50 ratio", "value": "> 10 fold"}
{"SMILES": "CSCC[C@@H]1NC(=O)[C@H](CC(C)C)NC(=O)[C@H](CCCNC(=N)N)NC(=O)[C@H](CO)NC(=O)[C@@H]2CSSC[C@@H]3NC(=O)[C@H](CO)NC(=O)CNC(=O)[C@H]([C@@H](C)O)NC(=O)[C@H](CSSC[C@H](N)C(=O)N[C@@H](CCCCN)C(=O)NCC(=O)N[C@@H](CCCCN)C(=O)NCC(=O)N[C@@H](C)C(=O)N[C@@H](CCCCN)C(=O)N2)NC(=O)[C@H](CSSC[C@@H](C(N)=O)NC(=O)[C@H](CCCCN)NC(=O)CNC(=O)[C@H](CO)NC(=O)[C@H](CCCNC(=N)N)NC3=O)NC(=O)[C@H](CC(=O)O)NC(=O)[C@H](Cc2ccc(O)cc2)NC1=O", "organism": "Staphylococcus aureus, Pseudomonas aeruginosa, Escherichia coli", "scale": "inactive up to this concentration", "quantity": "antimicrobial activity", "value": "> 0.5 mM"}
{"SMILES": "CS(=O)(=O)NC(=O)NCc1cc(-c2ccc(Br)cc2)oc1-c1ccncc1", "organism": "Mycobacterium tuberculosis", "test": "OD600", "test system": "cyd deletion mutant", "quantity": "MIC", "value": "0.12 µM"}
{"SMILES": "Cc1cc(/C=C/C#N)cc(C)c1Oc1nc(NC2CCN(Cc3ccc(P(C)(C)=O)cc3)CC2)nc2ccsc12", "organism": "HIV-1", "test system": "MT-4, F227L/V106A", "scale": "relative to: doravirine EC50 over cpd EC50", "quantity": "EC50 fold change", "value": "~18000 fold"}
{"SMILES": "N=C(N)NCCC[C@H](NC(=O)[C@H](CCCNC(=N)N)NC(=O)[C@H](Cc1c[nH]c2ccccc12)NC(=O)[C@H](Cc1c[nH]c2ccccc12)NC(=O)[C@H](CCCCN)NC(=O)[C@H](Cc1c[nH]c2ccccc12)NC(=O)[C@H](Cc1c[nH]c2ccccc12)NC(=O)[C@H](CCCNC(=N)N)NC(=O)[C@@H](N)CCCCN)C(N)=O", "organism": "Bacillus anthracis", "test system": "34F2 Sterne, LB medium", "conditions": "24 h, 37 °C", "quantity": "MIC", "value": "80 µM"}
{"SMILES": "CC[C@H](C)[C@H](NC(=O)[C@H](Cc1ccc(O)cc1)NC(=O)[C@H](CO)NC(=O)[C@H](CCC(=O)O)NC(=O)[C@H](CC(N)=O)NC(=O)[C@H](CC(C)C)NC(=O)[C@H](C)NC(=O)[C@H](CCCCN)NC(=O)[C@@H](NC(=O)[C@@H](NC(=O)[C@H](CCC(N)=O)NC(=O)[C@H](CCC(N)=O)NC(=O)[C@H](CC(C)C)NC(=O)[C@H](CO)NC(=O)[C@H](CC(C)C)NC(=O)[C@H](CCSC)NC(=O)[C@H](CCC(=O)O)NC(=O)[C@H](Cc1ccc(O)cc1)NC(=O)[C@@H](NC(=O)[C@H](CC(C)C)NC(=O)[C@H](CC(=O)O)NC(=O)[C@H](CC(C)C)NC(=O)[C@H](CC(C)C)NC(=O)[C@@H](NC(=O)[C@@H](NC(=O)[C@H](CC(N)=O)NC(=O)[C@@H](NC(=O)[C@H](CCC(N)=O)NC(=O)[C@@H](NC(=O)[C@H](CC(C)C)NC(=O)[C@@H](N)CO)[C@@H](C)O)[C@@H](C)CC)[C@@H](C)O)[C@@H](C)O)[C@@H](C)O)C(C)C)C(C)C)C(=O)N[C@@H](CC(=O)O)C(=O)N[C@@H](CC(C)C)C(=O)N[C@@H](CCCCN)C(=O)N[C@@H](CCC(=O)O)C(=O)N[C@@H](CC(C)C)C(=O)O", "organism": "MERS-CoV", "test": "viral replication, CPE MTT", "test system": "Vero", "quantity": "IC50", "value": "~600 nM and 600 nM"}
{"SMILES": "Nc1c(C(=O)Nc2cccc(F)c2)sc2nc(-c3cccs3)ccc12", "organism": "Bacillus anthracis", "test system": "Sterne", "quantity": "MIC50", "value": "80 µM"}
{"SMILES": "C[C@H](NP(=O)(Nc1ccn([C@H]2CS[C@@H](CO)O2)c(=O)n1)N[C@@H](C)C(=O)OCc1ccccc1)C(=O)OCc1ccccc1", "organism": "HIV-1", "test": "viral replication", "test system": "CCRF-CEM, IIIB", "conditions": "4 d", "quantity": "EC50", "value": "280 ± 170 nM"}
{"note": "Some of these lines once more:"}
{"SMILES": "Cc1cc(/C=C/C#N)cc(C)c1Oc1nc(NC2CCN(Cc3ccc(P(C)(C)=O)cc3)CC2)nc2ccsc12", "organism": "HIV-1", "test system": "MT-4, F227L/V106A", "scale": "relative to: doravirine EC50 over cpd EC50", "quantity": "EC50 fold change", "value": "~18000 fold"}
